Assay results of several laboratories.
Lines come from different studies, so protocols differ. ± gives the spread as reported.
lasR: Transcriptional activator protein LasR (lasR, Pseudomonas aeruginosa, UniProt P25084)
ATP5F1B/ATP5F1A/ATP synthase F(1) complex subunit gamma, mitochondrial: ATP5F1B/ATP5F1A/ATP synthase F(1) complex subunit gamma, mitochondrial (Homo sapiens, UniProt P06576+P25705+P36542)
Sequence of UniProt P36542 (whole entry, looked up): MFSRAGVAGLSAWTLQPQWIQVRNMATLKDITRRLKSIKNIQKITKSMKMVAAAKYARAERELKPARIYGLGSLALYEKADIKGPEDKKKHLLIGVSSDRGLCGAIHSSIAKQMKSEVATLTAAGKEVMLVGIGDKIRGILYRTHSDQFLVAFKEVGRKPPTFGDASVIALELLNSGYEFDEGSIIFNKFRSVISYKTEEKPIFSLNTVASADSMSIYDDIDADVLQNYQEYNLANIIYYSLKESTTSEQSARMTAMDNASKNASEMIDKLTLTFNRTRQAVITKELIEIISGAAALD
Sequence of UniProt P25705 (whole entry, looked up): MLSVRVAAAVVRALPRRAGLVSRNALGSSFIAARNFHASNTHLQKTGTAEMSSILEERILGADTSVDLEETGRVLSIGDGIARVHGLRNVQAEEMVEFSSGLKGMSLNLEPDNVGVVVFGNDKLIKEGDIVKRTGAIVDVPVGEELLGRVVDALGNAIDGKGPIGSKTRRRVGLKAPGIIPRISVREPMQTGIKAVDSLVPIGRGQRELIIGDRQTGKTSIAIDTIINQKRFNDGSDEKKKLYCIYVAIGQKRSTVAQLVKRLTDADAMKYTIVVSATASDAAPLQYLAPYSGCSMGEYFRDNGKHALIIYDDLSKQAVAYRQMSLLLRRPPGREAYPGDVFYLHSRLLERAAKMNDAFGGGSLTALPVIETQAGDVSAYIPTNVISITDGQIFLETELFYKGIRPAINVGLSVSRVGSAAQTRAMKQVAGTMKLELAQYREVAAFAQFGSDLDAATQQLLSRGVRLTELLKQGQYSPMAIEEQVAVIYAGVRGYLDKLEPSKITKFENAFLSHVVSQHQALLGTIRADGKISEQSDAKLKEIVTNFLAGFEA
Sequence of UniProt P06576 (whole entry, looked up): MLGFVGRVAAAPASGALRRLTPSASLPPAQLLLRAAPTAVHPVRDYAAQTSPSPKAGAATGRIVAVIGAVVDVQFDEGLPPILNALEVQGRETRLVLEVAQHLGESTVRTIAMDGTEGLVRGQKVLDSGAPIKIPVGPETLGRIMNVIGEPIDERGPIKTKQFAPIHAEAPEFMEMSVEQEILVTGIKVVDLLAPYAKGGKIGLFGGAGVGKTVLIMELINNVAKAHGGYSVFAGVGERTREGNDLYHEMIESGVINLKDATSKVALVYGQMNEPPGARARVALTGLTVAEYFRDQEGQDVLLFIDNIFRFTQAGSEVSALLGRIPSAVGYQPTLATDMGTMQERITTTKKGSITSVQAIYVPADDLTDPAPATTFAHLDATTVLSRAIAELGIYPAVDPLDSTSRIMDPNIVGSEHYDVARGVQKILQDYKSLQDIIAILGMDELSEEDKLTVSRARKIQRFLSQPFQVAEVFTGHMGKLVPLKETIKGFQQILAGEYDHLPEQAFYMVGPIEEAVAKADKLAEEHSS
Melanocortin receptor 3: Melanocortin receptor 3 (Mus musculus, UniProt P33033)
Sequence of UniProt P33033 (whole entry, looked up): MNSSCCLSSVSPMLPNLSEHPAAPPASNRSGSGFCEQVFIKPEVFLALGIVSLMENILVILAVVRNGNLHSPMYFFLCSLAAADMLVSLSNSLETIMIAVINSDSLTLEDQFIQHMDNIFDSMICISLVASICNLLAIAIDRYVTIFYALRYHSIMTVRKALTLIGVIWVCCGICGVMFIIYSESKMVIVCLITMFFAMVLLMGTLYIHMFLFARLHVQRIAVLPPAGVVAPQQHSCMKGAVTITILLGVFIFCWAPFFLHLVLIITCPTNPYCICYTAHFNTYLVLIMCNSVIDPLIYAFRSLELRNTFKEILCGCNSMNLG
Melanocortin receptor 5: Melanocortin receptor 5 (Mus musculus, UniProt P41149)
Sequence of UniProt P41149 (whole entry, looked up): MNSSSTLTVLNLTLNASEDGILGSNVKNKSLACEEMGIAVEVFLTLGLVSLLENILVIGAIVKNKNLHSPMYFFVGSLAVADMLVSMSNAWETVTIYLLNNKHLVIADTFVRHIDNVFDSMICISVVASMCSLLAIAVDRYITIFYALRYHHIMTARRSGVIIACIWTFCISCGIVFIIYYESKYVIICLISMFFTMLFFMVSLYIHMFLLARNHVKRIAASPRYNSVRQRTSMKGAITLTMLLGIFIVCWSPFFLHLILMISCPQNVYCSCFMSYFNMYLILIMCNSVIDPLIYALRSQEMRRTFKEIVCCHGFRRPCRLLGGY
Gonadotropin-releasing hormone receptor: Gonadotropin-releasing hormone receptor (Rattus norvegicus, UniProt P30969)
Sequence of UniProt P33535 (whole entry, looked up): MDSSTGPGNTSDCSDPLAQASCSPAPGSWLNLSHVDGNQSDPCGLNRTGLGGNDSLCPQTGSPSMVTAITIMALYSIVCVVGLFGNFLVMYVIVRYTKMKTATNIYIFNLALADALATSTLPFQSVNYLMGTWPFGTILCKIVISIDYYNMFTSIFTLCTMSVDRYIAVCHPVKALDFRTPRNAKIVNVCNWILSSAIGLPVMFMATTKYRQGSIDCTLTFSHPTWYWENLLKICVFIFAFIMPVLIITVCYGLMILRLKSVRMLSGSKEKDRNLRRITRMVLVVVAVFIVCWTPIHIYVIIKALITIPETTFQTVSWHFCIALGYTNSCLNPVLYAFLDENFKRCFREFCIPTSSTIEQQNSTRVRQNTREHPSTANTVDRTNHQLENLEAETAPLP
Sequence of UniProt P30969 (whole entry, looked up): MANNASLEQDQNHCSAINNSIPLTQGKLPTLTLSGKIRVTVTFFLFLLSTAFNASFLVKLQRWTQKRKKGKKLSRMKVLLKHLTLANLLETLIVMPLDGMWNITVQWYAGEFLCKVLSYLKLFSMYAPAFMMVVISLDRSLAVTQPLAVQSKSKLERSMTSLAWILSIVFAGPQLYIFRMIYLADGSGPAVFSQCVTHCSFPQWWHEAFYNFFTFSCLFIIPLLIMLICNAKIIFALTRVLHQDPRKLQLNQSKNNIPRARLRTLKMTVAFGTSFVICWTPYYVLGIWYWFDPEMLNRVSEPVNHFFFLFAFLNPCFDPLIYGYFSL
Sequence of UniProt Q03431 (whole entry, looked up): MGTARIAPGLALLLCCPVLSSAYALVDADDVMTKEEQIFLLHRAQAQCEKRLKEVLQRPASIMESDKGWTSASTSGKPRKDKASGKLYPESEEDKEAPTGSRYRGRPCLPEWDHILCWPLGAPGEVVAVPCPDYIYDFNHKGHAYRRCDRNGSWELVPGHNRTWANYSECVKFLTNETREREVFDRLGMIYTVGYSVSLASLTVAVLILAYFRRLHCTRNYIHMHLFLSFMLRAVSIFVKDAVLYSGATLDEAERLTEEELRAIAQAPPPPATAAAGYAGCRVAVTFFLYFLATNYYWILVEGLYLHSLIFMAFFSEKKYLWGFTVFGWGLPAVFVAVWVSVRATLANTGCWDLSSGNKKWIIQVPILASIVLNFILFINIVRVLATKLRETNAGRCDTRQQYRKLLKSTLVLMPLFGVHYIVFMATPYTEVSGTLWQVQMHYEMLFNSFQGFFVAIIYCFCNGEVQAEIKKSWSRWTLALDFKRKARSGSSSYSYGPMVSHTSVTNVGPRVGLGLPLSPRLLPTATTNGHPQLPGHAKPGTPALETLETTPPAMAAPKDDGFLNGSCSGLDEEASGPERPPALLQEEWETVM
Sequence of UniProt P30989 (whole entry, looked up): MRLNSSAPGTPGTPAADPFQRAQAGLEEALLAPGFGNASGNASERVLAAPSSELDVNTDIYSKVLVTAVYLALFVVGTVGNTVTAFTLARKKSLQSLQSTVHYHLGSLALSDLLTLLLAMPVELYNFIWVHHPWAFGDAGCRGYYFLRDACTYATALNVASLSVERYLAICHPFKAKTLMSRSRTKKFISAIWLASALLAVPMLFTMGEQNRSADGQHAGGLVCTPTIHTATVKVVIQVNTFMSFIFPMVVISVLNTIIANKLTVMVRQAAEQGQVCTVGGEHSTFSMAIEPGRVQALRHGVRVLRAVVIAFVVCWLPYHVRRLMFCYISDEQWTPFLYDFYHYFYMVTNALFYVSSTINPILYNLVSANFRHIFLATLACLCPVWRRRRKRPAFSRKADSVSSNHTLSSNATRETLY
Sequence of UniProt P30874 (whole entry, looked up): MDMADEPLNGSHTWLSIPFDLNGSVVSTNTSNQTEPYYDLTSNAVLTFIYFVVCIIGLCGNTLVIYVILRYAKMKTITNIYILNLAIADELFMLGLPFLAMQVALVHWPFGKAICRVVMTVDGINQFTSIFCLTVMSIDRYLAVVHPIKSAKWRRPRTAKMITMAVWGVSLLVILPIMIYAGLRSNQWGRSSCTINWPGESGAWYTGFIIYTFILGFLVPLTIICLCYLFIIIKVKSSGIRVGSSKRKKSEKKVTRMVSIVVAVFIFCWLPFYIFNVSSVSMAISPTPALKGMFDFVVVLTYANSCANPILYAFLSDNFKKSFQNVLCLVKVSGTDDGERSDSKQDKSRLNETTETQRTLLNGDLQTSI
Sequence of UniProt P50391 (whole entry, looked up): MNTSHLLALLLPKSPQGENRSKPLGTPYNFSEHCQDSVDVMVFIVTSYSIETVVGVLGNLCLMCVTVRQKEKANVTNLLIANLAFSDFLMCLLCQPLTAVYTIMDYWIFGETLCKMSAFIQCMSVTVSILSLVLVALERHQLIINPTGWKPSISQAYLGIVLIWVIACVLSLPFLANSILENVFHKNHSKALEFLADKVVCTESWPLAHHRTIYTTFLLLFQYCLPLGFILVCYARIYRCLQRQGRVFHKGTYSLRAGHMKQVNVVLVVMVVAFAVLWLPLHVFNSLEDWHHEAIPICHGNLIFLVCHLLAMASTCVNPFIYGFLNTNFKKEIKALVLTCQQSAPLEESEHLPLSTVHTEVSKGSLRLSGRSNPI
Sequence of UniProt P37288 (whole entry, looked up): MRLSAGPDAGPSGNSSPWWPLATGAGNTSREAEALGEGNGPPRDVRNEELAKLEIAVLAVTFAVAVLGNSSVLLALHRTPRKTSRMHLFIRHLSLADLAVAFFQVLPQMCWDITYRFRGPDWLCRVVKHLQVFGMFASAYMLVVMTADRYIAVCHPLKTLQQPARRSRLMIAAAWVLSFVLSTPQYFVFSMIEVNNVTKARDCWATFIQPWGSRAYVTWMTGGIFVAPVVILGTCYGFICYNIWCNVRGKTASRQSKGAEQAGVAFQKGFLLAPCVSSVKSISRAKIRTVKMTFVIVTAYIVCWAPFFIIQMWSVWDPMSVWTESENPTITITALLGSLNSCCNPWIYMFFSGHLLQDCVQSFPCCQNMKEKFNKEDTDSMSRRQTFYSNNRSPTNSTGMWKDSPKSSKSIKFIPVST

CCCC[C@H](NC(=O)[C@H](Cc1ccccc1)NC(=O)[C@H](CCC(N)=O)NC(=O)[C@@H](NC(=O)[C@H](CCC(=O)O)NC(=O)C(C)(C)NC(=O)[C@@H](NC(=O)C(C)(C)N)C(C)C)[C@@H](C)CC)C(=O)N[C@@H](Cc1c[nH]cn1)C(=O)N[C@@H](C)C(=O)N[C@@H](CCCNC(=N)N)C(=O)N[C@@H](C)C(=O)N[C@@H](CCCCN)C(=O)N[C@@H](Cc1c[nH]c2ccccc12)C(=O)O gave an EC50 of 15 nM (PTH1R (Homo sapiens, UniProt Q03431); cAMP, agonist).
CCCCCCCCCC(=O)CC(=O)NC1CCCCC1=O (stereo not shown) has an EC50 of greater than 200000 nM (lasR; reporter gene, agonist; PAO-JP2 pump active).
With COc1cc(C(Oc2ccc(C[C@H](N)C(=O)N[C@H](C)C(=O)NCC(=O)N(C)[C@@H](Cc3ccccc3)C(=O)NCCO)cc2)C(=O)O)c([N+](=O)[O-])cc1OC (stereo partly shown) the EC50 was 1700 nM (Oprm1 (Mus musculus, UniProt P42866); cAMP, agonist, luciferase).
CC(=O)N1CCCC[C@H]1C(=O)NC(C)(C)C(=O)N1CCCC[C@H]1C(=O)NC(C)(C)C(=O)NC(C)(C)C(=O)N[C@@H](CC(C)C)C(=O)NC[C@H](C)C(=O)NCC(=O)NC(C)(C)C(=O)NC(C)(C)C(=O)N1CCCC[C@H]1C(=O)NC(C)(C)C(=O)NCC(=O)N[C@@H](CC(C)C)C(=O)NC(C)(C)C(=O)N[C@@H](CC(C)C)C[N+]1=C2CCCN2CCC1 gave an EC50 of 0.95 ± 0.27 nM (ATP5F1B/ATP5F1A/ATP synthase F(1) complex subunit gamma, mitochondrial; ATP production, inhibitor; permeabilized MCF7).
For CC(C)C[C@H](N)C(=O)N[C@@H](Cc1ccccc1)C(=O)N[C@H]1CSSC[C@@H](C(=O)N[C@@H](Cc2c[nH]c3ccccc23)C(=O)O)NC(=O)[C@H](CO)NC(=O)[C@H](CCCCN)NC(=O)[C@@H](Cc2c[nH]c3ccccc23)NC(=O)[C@H](Cc2ccccc2)NC1=O, the EC50 was 2.6 nM (SSTR2 (Homo sapiens, UniProt P30874); β-arrestin recruitment, agonist).
With CC(=O)N[C@@H](Cc1ccc(O)cc1)C(=O)N[C@@H](CCCNC(=N)NC(=O)NCCCCN)C(=O)N[C@@H](CC(C)C)C(=O)N[C@@H](CCCNC(=N)N)C(=O)N[C@@H](Cc1ccc(O)cc1)C(N)=O the EC50 was 568 ± 120 nM (NPY4R (Homo sapiens, UniProt P50391); β-arrestin 2 recruitment, agonist; HEK293T).
C[C@@H]1NC(=O)[C@H](CC(N)=O)NC(=O)[C@H](Cc2c[nH]c3ccccc23)NC(=O)[C@H](CCCNC(=N)N)NC(=O)[C@@H](Cc2ccccc2)NC(=O)[C@H](Cc2c[nH]cn2)NC(=O)[C@@H](NC(=O)[C@@H](N)Cc2ccc(O)cc2)CCCn2nncc2-c2cccc(c2)-c2cnnn2CCC[C@@H](C(=O)N[C@@H](Cc2ccc(O)cc2)C(N)=O)NC(=O)[C@H](Cc2ccccc2)NC1=O has an EC50 of 2740 ± 706 nM (Melanocortin receptor 3; agonist).
With CC(=O)N[C@@H](CCCNC(=N)N)C(=O)N[C@@H](CCCNC(=N)N)C(=O)N[C@H](C(=O)N1Cc2ccccc2C[C@H]1C(N)=O)[C@H](c1ccccc1)c1c[nH]c2ccccc12 the EC50 was greater than 100000 nM (Melanocortin receptor 5; cAMP, agonist, AlphaScreen).
With Cc1cc(O)cc(C)c1CC(N)C(=O)NC1CCNc2c(CCc3ccccc3)cc(Cc3ccccc3)cc21 (stereo not shown) the EC50 was 44 nM (Oprm1 (Rattus norvegicus, UniProt P33535); GTPγS binding, agonist, radiometric; cell membranes).
With C[C@@H]1NC(=O)[C@H](CC(N)=O)N2C[C@H](Cc3c[nH]c4ccccc34)NC(=O)[C@@H](CSCC2=O)NC(=O)[C@H](CCCNC(=N)N)NC(=O)[C@@H](Cc2ccccc2)NC(=O)[C@H](Cc2c[nH]cn2)NC(=O)[C@@H](NC(=O)[C@@H](N)Cc2ccc(O)cc2)CSSC[C@@H](C(=O)N[C@@H](Cc2ccc(O)cc2)C(N)=O)NC(=O)[C@H](Cc2ccccc2)NC1=O the EC50 was 31 nM (Melanocortin receptor 5; reporter gene, agonist).
CC[C@H](C)[C@H](NC(=O)[C@H](Cc1ccc(O)cc1)NC(=O)[C@@H]1CCCN1C(=O)[C@H](CCCNC(=N)N)NC(=O)[C@H](CCCNC(=N)N)NC(=O)[C@@H](NC(=O)[C@H](CCCCN)NC(=O)[C@H](CC(N)=O)NC(=O)[C@H](CCC(=O)O)NC(=O)[C@H](Cc1ccc(O)cc1)NC(=O)[C@H](CC(C)C)NC(=O)[C@@H]1CCC(=O)N1)[C@@H](C)O[C@H]1O[C@H](CO)[C@H](O)[C@H](O[C@@H]2O[C@H](CO)[C@H](O)[C@H](O)[C@H]2O)[C@H]1NC(C)=O)C(=O)N[C@@H](CC(C)C)C(=O)O gave an EC50 of 0.9 nM (NTSR1 (Homo sapiens, UniProt P30989); calcium signal, agonist, fluorescence).
With Cc1cc(O)cc(C)c1CC(N)C(=O)NC1CCNc2c(CN3CCCCC3)cc(Cc3ccccc3)cc21 (stereo not shown) the EC50 was 2.3 nM (Oprm1 (Rattus norvegicus, UniProt P33535); GTPγS binding, agonist, radiometric; cell membranes).
CC(C)[C@@H]1NC(=O)[C@H](Cc2ccccc2)NC(=O)[C@H](Cc2ccc(O)cc2)NC(=O)CCSSCCC(=O)N[C@@H](Cc2ccc(O)cc2)C(=O)N[C@@H](Cc2ccccc2)C(=O)N[C@@H](C(C)C)C(=O)N[C@@H](CC(N)=O)C(=O)N[C@H](C(=O)N2CCC[C@H]2C(=O)N[C@H](CCCNC(=N)N)C(=O)NCC(N)=O)CSSC[C@@H](C(=O)N2CCC[C@H]2C(=O)N[C@H](CCCNC(=N)N)C(=O)NCC(N)=O)NC(=O)[C@H](CC(N)=O)NC1=O gave an EC50 of 78 nM (AVPR1A (Homo sapiens, UniProt P37288); inositol phosphate, agonist).
CC[C@H](C)[C@H](NC(=O)[C@H](CO)NC(=O)[C@H](Cc1ccc(O)cc1)NC(=O)[C@H](CC(=O)O)NC(=O)[C@H](CO)NC(=O)[C@@H](NC(=O)[C@H](Cc1ccccc1)NC(=O)[C@@H](NC(=O)CNC(=O)[C@@H]1CCCN1C(=O)[C@H](C)NC(=O)[C@@H](N)Cc1ccc(O)cc1)[C@@H](C)O)[C@@H](C)CC)C(=O)N[C@@H](C)C(=O)N[C@@H](CCSC)C(=O)N[C@@H](CC(=O)O)C(=O)N[C@@H](CCCCN)C(=O)N[C@H](C(=O)N[C@@H](CCCNC(=N)N)C(=O)N[C@@H](CCC(N)=O)C(=O)N[C@@H](CCC(N)=O)C(=O)N[C@@H](CC(=O)O)C(=O)N[C@@H](Cc1ccccc1)C(=O)N[C@H](C(=O)N[C@@H](CC(N)=O)C(=O)N[C@@H](Cc1c[nH]c2ccccc12)C(=O)N[C@@H](CC(C)C)C(=O)N[C@@H](CC(C)C)C(=O)N[C@@H](C)C(=O)N[C@@H](CCC(N)=O)C(=O)N[C@@H](CCCCN)C(=O)NCC(=O)N[C@@H](CCCCN)C(=O)N[C@@H](CCCCN)C(=O)N[C@@H](CC(N)=O)C(=O)N[C@@H](CC(=O)O)C(=O)N[C@@H](Cc1c[nH]c2ccccc12)C(=O)N[C@@H](CCCCN)C(=O)N[C@@H](Cc1c[nH]cn1)C(=O)N[C@@H](CC(N)=O)C(=O)N[C@@H](CC(C)C)C(=O)N[C@H](C(=O)N[C@@H](CCC(N)=O)C(=O)O)[C@@H](C)O)C(C)C)[C@@H](C)CC has an EC50 of 13 nM (Gastric inhibitory polypeptide receptor (Rattus norvegicus, UniProt P43219); cAMP, agonist).
CS(=O)(=O)c1cccc(OCCCC(=O)NC2CC3CC3C2O)c1 (stereo not shown) has an EC50 of greater than 100000 nM (lasR (Pseudomonas aeruginosa, UniProt P25084, A127W/Y93F); reporter gene, agonist; Escherichia coli lasB-lux reporter).
C[n+]1ccc(C(=O)NC2CCC3(O)C4Cc5ccc(O)c6c5C3(CC[N+]4(C)CC3CC3)C2O6)cc1 (stereo not shown) gave an EC50 of 240 nM (Oprm1 (Mus musculus, UniProt P42866); GTPγS binding, agonist, radiometric; cell membranes).
CSCC[C@H](NC(=O)[C@H](CC(C)C)NC(=O)CNC(=O)[C@H](Cc1ccccc1)NC(=O)[C@H](Cc1ccccc1)NC(=O)[C@@H]1CCC(=O)N1)C(N)=O gave an EC50 of 1 nM (TACR3 (Homo sapiens, UniProt P29371); β-arrestin recruitment, agonist).
With CS(=O)(=O)c1cccc(OCCCC(=O)N[C@H]2CCOC2=O)c1 the EC50 was 5600 nM (lasR (Pseudomonas aeruginosa, UniProt P25084, T75V); reporter gene, agonist).
With CC(C)C[C@H](NC(=O)[C@@H](CCCCN)NC(=O)[C@H](Cc1c[nH]cn1)NC(=O)[C@H](CO)NC(=O)[C@H](Cc1c[nH]c2ccccc12)NC(=O)[C@H](Cc1c[nH]cn1)NC(=O)[C@@H]1CCC(=O)N1)C(=O)N[C@@H](CCCNC(=N)N)C(=O)N1CCC[C@H]1C(=O)NCC(N)=O the EC50 was 6.2 ± 0.2 nM (Gonadotropin-releasing hormone receptor; inositol phosphate accumulation, agonist; WPE-1-NB26-3 expressing Gonadotropin-releasing hormone receptor; 60 min, 37 °C, added: 10 mM LiCl).
With Cc1cc(O)cc(C)c1CC(N)C(=O)NC1CCNc2c(Cc3ccccc3)cccc21 (stereo not shown) the EC50 was 1200 nM (Oprm1 (Rattus norvegicus, UniProt P33535); GTPγS binding, agonist, radiometric; cell membranes).
C[C@H]1[C@H]2CCC[C@]1(c1cccc(O)c1)CCN2CCc1ccccc1 has an EC50 of 7.44 nM (Oprm1 (Mus musculus, UniProt P42866); GTPγS binding, agonist, radiometric; cell membranes).
CC(=O)N[C@@H](CCCNC(=N)N)C(=O)N[C@@H](CCCNC(=N)N)C(=O)N[C@H](Cc1ccc(I)cc1)C(=O)N[C@@H](C(N)=O)[C@@H](c1ccccc1)c1c[nH]c2ccccc12 has an EC50 of 900 nM (Melanocortin receptor 3; cAMP, agonist, AlphaScreen).
With O=C(CCc1ccc(C(F)(F)F)cc1)N[C@H]1CCOC1=O the EC50 was 140000 nM (lasR; reporter gene, agonist; PAO-JP2 pump active).
The EC50 of Cc1cc(O)c(I)c(C)c1C[C@H](N)C(=O)N[C@H](C)C(=O)N[C@@H](Cc1ccccc1)C(=O)N[C@@H](Cc1ccccc1)C(N)=O is reported as greater than 500 nM (Oprd1 (Mus musculus, UniProt P32300); agonist).
O=C(CCc1ccc(Br)cc1)N[C@H]1CCOC1=O has an EC50 of 8400 nM (lasR; reporter gene, agonist; Escherichia coli, JLD271 with LasR plasmid).
The EC50 of NCCCC[C@@H](NC(=O)[C@H](Cc1c[nH]cn1)NC(=O)[C@H](CO)NC(=O)[C@H](Cc1c[nH]c2ccccc12)NC(=O)[C@H](Cc1c[nH]cn1)NC(=O)[C@@H]1CCC(=O)N1)C(=O)N[C@@H](Cc1c[nH]c2ccccc12)C(=O)N[C@@H](Cc1ccc(O)cc1)C(=O)N1CCC[C@H]1C(=O)NCC(N)=O is reported as 0.8 ± 0.2 nM (Gonadotropin-releasing hormone receptor; inositol phosphate accumulation, agonist; WPE-1-NB26-3 expressing Gonadotropin-releasing hormone receptor; 60 min, 37 °C, added: 10 mM LiCl).
For CC(=O)N1CCCC[C@H]1C(=O)NC(C)(C)C(=O)N1CCCC[C@H]1C(=O)NC(C)(C)C(=O)NC(C)(C)C(=O)N[C@@H](CC(C)C)C(=O)NCCC(=O)N[C@H](C)C(=O)NC(C)(C)C(=O)NC(C)(C)C(=O)N1CCCC[C@H]1C(=O)NC(C)(C)C(=O)NCC(=O)N[C@@H](CC(C)C)C(=O)NC(C)(C)C(=O)N[C@@H](CC(C)C)C[N+]1=C2CCCN2CCC1, the EC50 was 0.86 ± 0.24 nM (ATP5F1B/ATP5F1A/ATP synthase F(1) complex subunit gamma, mitochondrial; ATP production, inhibitor; permeabilized MCF7).
For O=C(NCc1cc(Br)cc(Br)c1OC(=O)c1ccccc1[N+](=O)[O-])c1ccccc1Cl, the EC50 was roughly 8 nM (lasR; reporter gene, agonist; Escherichia coli, JLD271 pJN105L pSC11).

Excerpt of the above:
With Cc1cc(O)cc(C)c1CC(N)C(=O)NC1CCNc2c(CCc3ccccc3)cc(Cc3ccccc3)cc21 (stereo not shown) the EC50 was 44 nM (Oprm1 (Rattus norvegicus, UniProt P33535); GTPγS binding, agonist, radiometric; cell membranes).
With C[C@@H]1NC(=O)[C@H](CC(N)=O)N2C[C@H](Cc3c[nH]c4ccccc34)NC(=O)[C@@H](CSCC2=O)NC(=O)[C@H](CCCNC(=N)N)NC(=O)[C@@H](Cc2ccccc2)NC(=O)[C@H](Cc2c[nH]cn2)NC(=O)[C@@H](NC(=O)[C@@H](N)Cc2ccc(O)cc2)CSSC[C@@H](C(=O)N[C@@H](Cc2ccc(O)cc2)C(N)=O)NC(=O)[C@H](Cc2ccccc2)NC1=O the EC50 was 31 nM (Melanocortin receptor 5; reporter gene, agonist).
